{"data": "Published values of several laboratories", "note": "Every numbered part comes from another study and shows a few of its results, in no order.", "UniProt P23975, sequence (whole entry, looked up)": "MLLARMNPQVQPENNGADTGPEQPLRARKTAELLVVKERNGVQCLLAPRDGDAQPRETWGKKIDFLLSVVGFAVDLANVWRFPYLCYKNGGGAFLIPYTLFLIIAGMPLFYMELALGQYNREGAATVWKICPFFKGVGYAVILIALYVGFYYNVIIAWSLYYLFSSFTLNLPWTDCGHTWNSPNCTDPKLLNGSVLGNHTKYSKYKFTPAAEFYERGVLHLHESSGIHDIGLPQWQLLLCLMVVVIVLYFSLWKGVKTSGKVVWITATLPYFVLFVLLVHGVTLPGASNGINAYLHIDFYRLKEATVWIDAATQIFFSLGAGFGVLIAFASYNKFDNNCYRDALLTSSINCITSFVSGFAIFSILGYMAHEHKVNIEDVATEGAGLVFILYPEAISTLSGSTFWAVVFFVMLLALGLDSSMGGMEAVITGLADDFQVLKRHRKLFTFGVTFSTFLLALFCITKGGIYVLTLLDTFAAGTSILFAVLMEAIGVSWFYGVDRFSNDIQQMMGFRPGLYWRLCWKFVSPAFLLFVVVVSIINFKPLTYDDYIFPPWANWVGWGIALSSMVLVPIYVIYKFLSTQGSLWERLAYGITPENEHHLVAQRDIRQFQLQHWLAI", "UniProt Q01959, sequence (whole entry, looked up)": "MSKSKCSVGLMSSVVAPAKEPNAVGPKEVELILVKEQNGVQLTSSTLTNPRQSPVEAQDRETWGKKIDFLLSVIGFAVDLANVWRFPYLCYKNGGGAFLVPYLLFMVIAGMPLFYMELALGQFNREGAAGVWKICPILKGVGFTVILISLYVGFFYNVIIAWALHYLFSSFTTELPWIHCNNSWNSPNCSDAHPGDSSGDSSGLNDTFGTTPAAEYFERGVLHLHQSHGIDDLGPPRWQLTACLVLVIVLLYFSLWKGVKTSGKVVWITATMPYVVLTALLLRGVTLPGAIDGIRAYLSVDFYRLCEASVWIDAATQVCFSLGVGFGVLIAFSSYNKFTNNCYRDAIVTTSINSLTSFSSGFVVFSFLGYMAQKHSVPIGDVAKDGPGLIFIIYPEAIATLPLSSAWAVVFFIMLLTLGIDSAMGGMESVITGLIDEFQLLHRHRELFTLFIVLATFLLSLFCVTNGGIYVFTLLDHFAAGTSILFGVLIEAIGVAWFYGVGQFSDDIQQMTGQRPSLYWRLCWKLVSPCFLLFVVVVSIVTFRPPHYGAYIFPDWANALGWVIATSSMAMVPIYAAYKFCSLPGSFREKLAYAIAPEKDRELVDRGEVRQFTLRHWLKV", "UniProt P31645, sequence (whole entry, looked up)": "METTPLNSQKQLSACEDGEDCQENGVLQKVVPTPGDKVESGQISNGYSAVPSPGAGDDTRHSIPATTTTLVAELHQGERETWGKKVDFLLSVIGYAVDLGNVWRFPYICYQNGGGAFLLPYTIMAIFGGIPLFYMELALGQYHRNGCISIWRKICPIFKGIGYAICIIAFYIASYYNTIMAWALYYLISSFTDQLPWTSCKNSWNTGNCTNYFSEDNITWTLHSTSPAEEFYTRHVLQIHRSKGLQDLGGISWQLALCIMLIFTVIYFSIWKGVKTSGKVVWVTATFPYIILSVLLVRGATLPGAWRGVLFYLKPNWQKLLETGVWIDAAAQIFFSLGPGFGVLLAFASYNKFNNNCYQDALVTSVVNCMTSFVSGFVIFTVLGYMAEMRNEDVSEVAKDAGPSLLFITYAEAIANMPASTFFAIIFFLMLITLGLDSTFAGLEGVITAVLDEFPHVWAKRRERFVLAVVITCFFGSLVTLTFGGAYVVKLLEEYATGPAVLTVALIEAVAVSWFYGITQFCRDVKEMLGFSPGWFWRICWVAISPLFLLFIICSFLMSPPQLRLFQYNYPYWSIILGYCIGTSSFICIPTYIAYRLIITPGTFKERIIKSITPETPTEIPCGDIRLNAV"}
{"data": "Block 1", "cell line": "mouse MPNST tumor cells", "technique": "high-content immunofluorescence imaging", "item": "nuclear SOX9", "concentration": "10 µM", "time": "12 h", "setting": "mean of 2 replicates", "baseline": "DMSO control", "direction": "higher = more nuclear SOX9"}
{"SMILES": "CCNC1=Nc2ccc(Cl)cc2C(C)(c2ccccc2)O1 (stereo not drawn)", "nuclear SOX9 intensity": "101 % of DMSO"}
{"SMILES": "CC(=O)N1N=C(c2ccc(N)cc2)c2cc3c(cc2C[C@H]1C)OCO3", "nuclear SOX9 intensity": "101 % of DMSO"}
{"SMILES": "Cc1cc(SCc2sc(-c3ccc(C(F)(F)F)c(F)c3)nc2C)ccc1OCC(=O)O", "nuclear SOX9 intensity": "90.4 % of DMSO"}
{"SMILES": "C=CCN1CC[C@]23c4c5ccc(O)c4O[C@H]2C(=O)CC[C@@]3(O)[C@H]1C5", "nuclear SOX9 intensity": "102 % of DMSO"}
{"SMILES": "CN1C2C=C(c3sccc3Br)CC1CC2 (stereo not drawn)", "nuclear SOX9 intensity": "97.9 % of DMSO"}
{"data": "Block 2", "Structure (SMILES)": "CN([C@@H]1CCc2c(CC(=O)O)c3ccccc3n2C1)S(=O)(=O)c1ccc(F)cc1", "observed": "ligand displacement", "concentration": "10 µM"}
{"target": "Sodium-dependent dopamine transporter (SLC6A3, Homo sapiens, UniProt Q01959)", "inhibition": "77.1%"}
{"target": "Sodium-dependent serotonin transporter (SLC6A4, Homo sapiens, UniProt P31645)", "inhibition": "9.29%"}
{"target": "Sodium-dependent noradrenaline transporter (SLC6A2, Homo sapiens, UniProt P23975)", "inhibition": "23.8%"}
{"data": "Block 3", "cell line": "HaCaT", "concentration": "100 µM", "time": "36 h"}
{"Compound": "COc1ccc(C(=O)N2CCCC2=O)cc1", "viability": "73.6%"}
{"Compound": "NC(=O)CN1CCCC1=O", "viability": "82.3%"}
{"Compound": "CCOP(=S)(OCC)Oc1cc(C)nc(C(C)C)n1", "viability": "86.7%"}
{"Compound": "OC(O)C(Cl)(Cl)Cl", "viability": "107%"}
{"data": "Block 4", "organism": "Sarcocystis neurona", "observed": "parasite growth", "concentration": "10 µM", "time": "96 h", "setting": "first screen", "baseline": "untreated"}
{"Structure (SMILES)": "C=C1C[C@@H]2[C@H](CC[C@]3(C)C(=O)CC[C@@H]23)[C@@]2(C)C=CC(=O)C=C12", "log2 fold change": -0.16}
{"Structure (SMILES)": "C[C@]12CCC(=O)C=C1CC[C@@H]1[C@@H]2CC[C@@]2(C)[C@H]1CC[C@]2(C)O", "log2 fold change": -0.27}
{"Structure (SMILES)": "O=C1CN=C(c2ccccc2)c2cc([N+](=O)[O-])ccc2N1", "log2 fold change": -0.11}
{"Structure (SMILES)": "Oc1c(Cl)cc(Cl)c2cccnc12", "log2 fold change": -4.88}
{"Structure (SMILES)": "CCN(C(C)=O)c1cccc(-c2ccnc3c(C#N)cnn23)c1", "log2 fold change": 0.00776}
{"Structure (SMILES)": "c1ccc2c3c([nH]c2c1)CNCC3", "log2 fold change": 0.03}
{"note": "For quick reference, copied from above (block 1):"}
{"SMILES": "CN1C2C=C(c3sccc3Br)CC1CC2 (stereo not drawn)", "nuclear SOX9 intensity": "97.9 % of DMSO"}
{"SMILES": "CCNC1=Nc2ccc(Cl)cc2C(C)(c2ccccc2)O1 (stereo not drawn)", "nuclear SOX9 intensity": "101 % of DMSO"}
